Published values collected from several papers.
Protocols differ between the studies behind these lines.

| SMILES | organism | test | test system | conditions | MIC |
| --- | --- | --- | --- | --- | --- |
| CNC(C)C1CCC(N)C(OC2C(N)CC(N)C(OC3OCC(C)(O)C(NC)C3O)C2O)O1 (centres unmarked) | Pseudomonas aeruginosa | broth microdilution | clinical isolate RKI-No 485/15-1 |  | > 8 µg/mL |
| CC(=O)NC[C@H]1CN(c2ccc(N3CCOCC3)c(F)c2)C(=O)O1 | Staphylococcus aureus | broth microdilution | MRSA NRS123 USA400 |  | 1 µM |
| N=C(N)c1ccc(OCCC(CCOc2ccc(C(=N)N)cc2)c2ccccc2)cc1 (centres unmarked) | Escherichia coli |  | BW25113 | in combination, lowest-FICI combination, with: vancomycin | 200 µg/mL |
| CC1(C)S[C@@H]2[C@H](NC(=O)[C@H](N)c3ccccc3)C(=O)N2[C@H]1C(=O)O | Pseudomonas aeruginosa |  | clinical isolate RKI-No_497/15 |  | > 16 µg/mL |
| N#CC(=C1C=CC(=NOC(=O)OCc2ccccc2)C=C1)c1ccccc1 | Candida parapsilosis | broth dilution | ATCC 22099 | 48 h, 37 °C | 16 µg/mL |
| N=C(N)c1cccc(OCc2ccc(COc3cccc(C(=N)N)c3)cc2)c1 | Escherichia coli |  | mcr-2 polymyxin-resistant | 20 h, compound alone | > 200 µg/mL |
| O=C(CO/N=c1\cc2n(-c3ccc(Cl)cc3)c3ccccc3nc-2cc1Nc1ccc(Cl)cc1)NCc1ccc(C(F)(F)F)cc1 | Mycobacteroides abscessus | bacterial growth | clinical isolate |  | > 30 µM |
| C[C@H]1CC[C@H](NC(=O)CNc2ccc(Cl)cc2)CC1 | Mycobacteroides abscessus | broth microdilution |  | 120 h | inactive |
| CO/N=c1\cc2n(-c3ccc(Cl)cc3)c3ccccc3nc-2cc1Nc1ccc(Cl)cc1 | Mycobacteroides abscessus | bacterial growth | clinical isolate |  | > 30 µM |
| CC1(C)SC2C(NC(=O)C(NC(=O)C3=C(O)C(Cc4ccc([N+](=O)[O-])cc4)NC3=O)c3ccccc3)C(=O)N2C1C(=O)O (centres unmarked) | Escherichia coli | broth microdilution | ATCC 25922 wild type | with: clavulanic acid 6 µg/mL | 25 µg/mL |
| C=C1C(=O)O[C@@H](CCCCCCCCCCCCC)[C@@H]1C(=O)O | Candida parapsilosis |  | CP1 |  | 32 µg/mL |
| CCCCCCCCCC(=O)N[C@@H](Cc1c[nH]c2ccccc12)C(=O)N[C@H](CC(N)=O)C(=O)N[C@@H](CC(=O)O)C(=O)N[C@@H]1C(=O)NCC(=O)N[C@@H](CCCN)C(=O)N[C@@H](CC(=O)O)C(=O)N[C@H](C)C(=O)N[C@@H](CC(=O)O)C(=O)NCC(=O)N[C@H](CO)C(=O)N[C@@H]([C@H](C)CC(=O)O)C(=O)N[C@@H](CC(=O)c2ccccc2N)C(=O)O[C@@H]1C | Enterococcus | broth microdilution | VRE 155, Mueller-Hinton broth, Mg2+ 10 mg/L | 16 h, with: Ca2+ 5 mM | 0.25 µg/mL |
| N=C(N)c1ccc(OCCCCCOc2ccc(C(=N)N)cc2)cc1 | Escherichia coli |  | BW25113 | in combination, lowest-FICI combination, with: vancomycin | 200 µg/mL |
| C#CCON=C1C=CC(=C(C#N)c2ccccc2)C=C1 | Candida parapsilosis | broth dilution | ATCC 22099 | 48 h, 37 °C | 32 µg/mL |
| CC1(C)S[C@@H]2[C@H](NC(=O)[C@H](N)c3ccc(O)cc3)C(=O)N2[C@H]1C(=O)O | Bacillus cereus | broth microdilution | MTCC 430 |  | 8 µg/mL |
| C[C@H](NC(=O)CO/N=c1\cc2n(-c3ccc(Cl)cc3)c3ccccc3nc-2cc1Nc1ccc(Cl)cc1)C(=O)O | Mycobacteroides abscessus | bacterial growth | clinical isolate |  | > 30 µM |
| CC1(C)SC2C(NC(=O)C(NC(=O)C3=C(O)C(Cc4ccc(F)cc4)NC3=O)c3ccccc3)C(=O)N2C1C(=O)O (centres unmarked) | Escherichia coli | broth microdilution | ATCC 25922 wild type | no clavulanic acid | 6.25 µg/mL |
| CC(C)/N=c1\cc2n(-c3ccc(Cl)cc3)c3ccccc3nc-2cc1Nc1ccc(Cl)cc1 | Mycobacteroides abscessus | bacterial growth | ATCC 19977 |  | 3.75 µM |
| CCCCCCCCCC(=O)N[C@@H](Cc1c[nH]c2ccccc12)C(=O)N[C@H](CC(N)=O)C(=O)N[C@@H](CC(=O)O)C(=O)N[C@@H]1C(=O)NCC(=O)N[C@@H](CCCN)C(=O)N[C@@H](CC(=O)O)C(=O)N[C@H](C)C(=O)N[C@@H](CC(=O)O)C(=O)NCC(=O)N[C@H](CO)C(=O)N[C@@H]([C@H](C)CC(=O)O)C(=O)N[C@@H](CC(=O)c2ccccc2N)C(=O)O[C@@H]1C | Staphylococcus aureus |  | SH1000 | with: phosphatidylglycerol, molar ratio 0.5 | 1 µg/mL |
| COc1cccc(CNc2ccc(C(=O)O)cc2)c1OC | Enterococcus |  |  |  | 256 µg/mL |
| O=C(O)CNC(=O)CO/N=c1\cc2n(-c3ccc(Cl)cc3)c3ccccc3nc-2cc1Nc1ccc(Cl)cc1 | Mycobacteroides abscessus | bacterial growth | ATCC 19977 |  | 15 µM |
| CC1(C)S[C@@H]2[C@H](NC(=O)[C@H](N)c3ccc(O)cc3)C(=O)N2[C@H]1C(=O)O | Enterococcus |  |  |  | 16 µg/mL |
| Cc1c(CN(C)C(=O)/C=C/c2cnc3c(c2)CCC(=O)N3)oc2ccccc12 | Escherichia coli | broth microdilution | AR-0085 |  | > 32 µg/mL |

Some of these lines once more:
| SMILES | organism | test | test system | conditions | MIC |
| --- | --- | --- | --- | --- | --- |
| CC(=O)NC[C@H]1CN(c2ccc(N3CCOCC3)c(F)c2)C(=O)O1 | Staphylococcus aureus | broth microdilution | MRSA NRS123 USA400 |  | 1 µM |
| N=C(N)c1ccc(OCCCCCOc2ccc(C(=N)N)cc2)cc1 | Escherichia coli |  | BW25113 | in combination, lowest-FICI combination, with: vancomycin | 200 µg/mL |
| O=C(O)CNC(=O)CO/N=c1\cc2n(-c3ccc(Cl)cc3)c3ccccc3nc-2cc1Nc1ccc(Cl)cc1 | Mycobacteroides abscessus | bacterial growth | ATCC 19977 |  | 15 µM |
